Measurements from different studies.
Numbers after ± are the reported error.

| Structure (SMILES) | test | system | setting | scale | quantity | result |
| --- | --- | --- | --- | --- | --- | --- |
| CCCCCCCCCCCCCCC[C@H](O)[C@@H](N)CO | – | human, phase I, plasma | intravenous, 360 mg/m^2, day 1, monotherapy | – | AUC | 76 µM·h |
| COc1cc(Nc2ncc3c(n2)-c2ccc(Cl)cc2C(c2c(F)cccc2OC)=NC3)ccc1C(=O)O | – | human, plasma | oral, 40 mg twice daily, day 7, steady state geometric mean | – | AUC dosing interval | 13.7 µM·h |
| CCS(=O)(=O)N1CC(CC#N)(n2cc(-c3ncnc4[nH]ccc34)cn2)C1 | – | healthy Chinese humans | oral, 2 to 10 mg once daily, 7 days | – | AUC accumulation | ≤ 10% |
| O=c1[nH]cc(F)c(=O)[nH]1 | – | human, plasma | intravenous, 2400 mg/m^2 maintenance, cycle 1 without vorinostat, once-daily cohort | – | AUC | 29900 ± 6660 ng·h/mL |
| CC(C)c1nc(N(C)S(C)(=O)=O)nc(-c2ccc(F)cc2)c1/C=C/[C@@H](O)C[C@@H](O)CC(=O)O | – | human, plasma | oral, dose not given, added: finerenone dosed 4.25 h after | relative to: with over without finerenone | AUC ratio | 105% |
| CCCCCCOC(=O)NC(=N)c1ccc(NCc2nc3cc(C(=O)N(CCC(=O)OCC)c4ccccn4)ccc3n2C)cc1 | – | human | oral, 75 mg, dabigatran free and total, added: cilofexor multiple dose | relative to: cpd alone | AUC and Cmax | no effect |
| CO[C@H]1C[C@@H]2CC[C@@H](C)[C@@](O)(O2)C(=O)C(=O)N2CCCC[C@H]2C(=O)O[C@H]([C@H](C)C[C@@H]2CC[C@@H](O)[C@H](OC)C2)CC(=O)[C@H](C)/C=C(\C)[C@@H](O)[C@@H](OC)C(=O)[C@H](C)C[C@H](C)/C=C/C=C/C=C/1C | – | human, whole blood | oral, 30 mg, mean | – | AUC | 2710 ng·h/mL |
| CNCc1ccc(-c2[nH]c3cc(F)cc4c3c2CCNC4=O)cc1 | – | human patients | oral, 400 mg twice daily, day 1, mean, added: bevacizumab | – | AUC at steady state | 15500 ± 800 ng·h/mL |
| CCOc1ccc(Cc2cc([C@]34OC[C@](CO)(O3)[C@@H](O)[C@H](O)[C@H]4O)ccc2Cl)cc1 | – | human, type 2 diabetes, moderate renal impairment, plasma | oral, 15 mg | – | AUC | 2080 ng·h/mL |
| CCOc1ccc(Cc2cc([C@]34OC[C@](CO)(O3)[C@@H](O)[C@H](O)[C@H]4O)ccc2Cl)cc1 | pooled meta-analysis | human, UGT1A9 -2152 heterozygous, plasma | oral, dose not given | relative to: wild type | AUC dose-proportionality slope fold change | 0.988 |
| C[C@@H]1CCN(C(=O)CC#N)C[C@@H]1N(C)c1ncnc2[nH]ccc12 | – | human, ulcerative colitis patients, plasma | oral, 10 mg twice daily | relative to: rheumatoid and psoriatic arthritis patients | AUC difference | ≤ 20% |
| CC(C)c1nc(CN(C)C(=O)N[C@H](C(=O)N[C@@H](Cc2ccccc2)C[C@H](O)[C@H](Cc2ccccc2)NC(=O)OCc2cncs2)C(C)C)cs1 | – | human, plasma | oral, 400 mg twice daily | – | AUC | 83 µM·h |
| COc1cc(Nc2ncc3c(n2)-c2ccc(Cl)cc2C(c2c(F)cccc2OC)=NC3)ccc1C(=O)O | – | human, phase I | oral, 40 mg, 0 to 8 h, estimated by accumulation | – | AUC steady state | 7480 ± 4460 ng·h/mL |
| Cc1[nH]c(/C=C2\C(=O)Nc3ccccc32)c(C)c1CCC(=O)O | HPLC-UV | human, plasma | oral, 400 mg/m^2 twice daily, day 28 | – | AUC | 54800 ng·h/mL |

Some of these lines once more:
| Structure (SMILES) | test | system | setting | scale | quantity | result |
| --- | --- | --- | --- | --- | --- | --- |
| COc1cc(Nc2ncc3c(n2)-c2ccc(Cl)cc2C(c2c(F)cccc2OC)=NC3)ccc1C(=O)O | – | human, phase I | oral, 40 mg, 0 to 8 h, estimated by accumulation | – | AUC steady state | 7480 ± 4460 ng·h/mL |
| CO[C@H]1C[C@@H]2CC[C@@H](C)[C@@](O)(O2)C(=O)C(=O)N2CCCC[C@H]2C(=O)O[C@H]([C@H](C)C[C@@H]2CC[C@@H](O)[C@H](OC)C2)CC(=O)[C@H](C)/C=C(\C)[C@@H](O)[C@@H](OC)C(=O)[C@H](C)C[C@H](C)/C=C/C=C/C=C/1C | – | human, whole blood | oral, 30 mg, mean | – | AUC | 2710 ng·h/mL |
